Published values gathered from unrelated publications.
A part holds a random share of what one study measured.

Series 1
Target: Sal-like protein 4, full length isoform B (SALL4, Homo sapiens, UniProt Q9UJQ4-2, residues 1-616)
Technique: universal PBM
Molecule type: double-stranded DNA, one strand shown
Sample: in vitro
Tested at: not given
Setting: 8-mer, flanks averaged, mean of replicates
Reading: higher = stronger binding
Construct (chain): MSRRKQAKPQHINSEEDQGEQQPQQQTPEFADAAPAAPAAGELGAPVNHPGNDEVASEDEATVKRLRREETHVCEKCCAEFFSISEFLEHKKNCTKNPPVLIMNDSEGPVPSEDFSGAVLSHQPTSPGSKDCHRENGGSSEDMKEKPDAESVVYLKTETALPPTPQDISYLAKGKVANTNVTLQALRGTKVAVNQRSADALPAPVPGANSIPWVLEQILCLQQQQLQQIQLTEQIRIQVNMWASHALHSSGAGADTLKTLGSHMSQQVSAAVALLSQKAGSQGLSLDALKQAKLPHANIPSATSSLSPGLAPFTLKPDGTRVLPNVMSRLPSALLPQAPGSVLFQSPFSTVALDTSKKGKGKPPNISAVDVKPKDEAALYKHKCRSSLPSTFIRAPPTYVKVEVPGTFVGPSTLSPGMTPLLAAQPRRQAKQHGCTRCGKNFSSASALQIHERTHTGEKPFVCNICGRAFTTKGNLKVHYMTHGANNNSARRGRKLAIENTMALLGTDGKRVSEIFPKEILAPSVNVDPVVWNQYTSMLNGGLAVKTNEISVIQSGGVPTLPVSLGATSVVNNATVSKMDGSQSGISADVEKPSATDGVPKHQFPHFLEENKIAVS
`CTTTTCCC` gave an E-score of 0.0573.
The E-score of `CACCGTCG` is reported as -0.233.
`CCCAGAAC` gave an E-score of -0.138.
`GCCGATCA` has an E-score of 0.0483.
`ACTGCGGC` gave an E-score of -0.301.
The E-score of `CCCCTAGC` is reported as -0.257.
The E-score of `ACGGGCTG` is reported as -0.224.
`ACTCAACG` gave an E-score of -0.0252.
The E-score of `TGGGGTAA` is reported as -0.0791.

Series 2
Target: Ras GTPase-activating protein-binding protein 1, full length (G3BP1, Homo sapiens, UniProt Q13283)
Sequence of UniProt Q13283 (whole entry, looked up): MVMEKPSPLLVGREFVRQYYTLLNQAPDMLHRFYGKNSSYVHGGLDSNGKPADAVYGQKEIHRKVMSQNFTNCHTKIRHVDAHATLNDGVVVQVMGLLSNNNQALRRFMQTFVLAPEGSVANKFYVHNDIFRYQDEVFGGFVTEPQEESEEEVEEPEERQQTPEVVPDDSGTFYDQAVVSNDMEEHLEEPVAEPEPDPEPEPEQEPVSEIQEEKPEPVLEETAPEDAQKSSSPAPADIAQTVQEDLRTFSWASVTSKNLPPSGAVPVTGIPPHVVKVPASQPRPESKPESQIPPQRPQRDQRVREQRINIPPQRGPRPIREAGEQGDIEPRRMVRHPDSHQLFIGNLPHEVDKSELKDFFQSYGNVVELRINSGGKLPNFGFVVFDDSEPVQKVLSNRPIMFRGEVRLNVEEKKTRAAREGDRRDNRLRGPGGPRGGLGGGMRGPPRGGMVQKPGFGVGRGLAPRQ
Technique: RNA Bind-n-Seq
Molecule type: RNA
Sample: in vitro
Tested at: 200 nM
Setting: whole 134-nt RNA, ends assumed
Together with: 150 mM LiCl
Relative to: input library
Reading: higher = stronger binding
All molecules: 7-deaza-guanosine replaces G
With `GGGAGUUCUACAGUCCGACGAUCUGGAGGAGCCAUAGAAUAUUAAGGAUGAAUUCAGGAAGGCCUGAGACCAUGGAAAACUUGCCUGCUCUCUACACUAUUUUCCAAGGAGAGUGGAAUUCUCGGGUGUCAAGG` the log2 enrichment was -0.575.
`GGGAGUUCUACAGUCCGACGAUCUUAAGUUGAAGGAGCGCUACCGCAACGUGCUGGACACCAUGUUCGAGCUGCUGCCCCGGAUGGCCAGGUACUGCCAGCCCCCACCCUGGCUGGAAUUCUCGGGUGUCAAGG` gave a log2 enrichment of -0.14.
With `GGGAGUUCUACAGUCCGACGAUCAUUAAUUUGUACACAGACAGGGAAACUGGCAAGCUGAAGGGAGAGGCAACGGUCUCUUUUGAUGACCCACCUUCAGCUAAAGCAGCUAUUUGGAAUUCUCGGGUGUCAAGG` the log2 enrichment was -1.77.
`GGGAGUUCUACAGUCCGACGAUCCCUGUGCUACACAUCGUAUGUACCGAAUCGGGGUUUUUUUGGGGUUUUUUUGGGGUGGGGAAAGUAUUAUGUUACGCCGUUCGGAUCUGCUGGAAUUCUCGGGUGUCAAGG` has a log2 enrichment of 0.867.
`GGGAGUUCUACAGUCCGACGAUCUAACUUUAGAGGAGGAUCUGAUGGAUAUGGCAGUGGACGUGGAUUUGGGGAUGGCUAGAAUGGGUAUGGAGGAGGACCUGGAGGUGGCAAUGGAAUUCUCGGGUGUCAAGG` has a log2 enrichment of 0.406.
`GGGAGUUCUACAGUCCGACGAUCACCAUGCAGGUGGGCAUCUUUGGGAAGUGGGGCAAGGGGGGGAUAGGGAGGGGGGUAACACUUUGGGAACAGGUGAUCCCAGGUCGUUUCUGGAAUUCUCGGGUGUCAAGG` has a log2 enrichment of 0.171.

Series 3
Target: Interferon regulatory factor 3, full length, phosphomimetic (IRF3, Homo sapiens, UniProt Q14653, residues 1-427, S386D/S396D/S398D/S402D/T404D/S405D)
Sequence of UniProt Q14653 (whole entry, unmodified, looked up): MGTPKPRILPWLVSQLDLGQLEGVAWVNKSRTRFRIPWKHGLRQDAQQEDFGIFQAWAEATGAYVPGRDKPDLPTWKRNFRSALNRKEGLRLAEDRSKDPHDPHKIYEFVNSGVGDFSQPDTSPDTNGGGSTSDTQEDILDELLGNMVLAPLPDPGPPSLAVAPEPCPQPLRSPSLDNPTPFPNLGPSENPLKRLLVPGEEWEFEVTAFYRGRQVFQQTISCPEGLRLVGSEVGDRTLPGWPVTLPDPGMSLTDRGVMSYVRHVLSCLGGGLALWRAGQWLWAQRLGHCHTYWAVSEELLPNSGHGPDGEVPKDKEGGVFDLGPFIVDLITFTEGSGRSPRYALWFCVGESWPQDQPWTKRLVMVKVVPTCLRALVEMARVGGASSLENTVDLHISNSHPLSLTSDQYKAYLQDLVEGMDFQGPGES
Technique: protein-binding microarray
Molecule type: double-stranded DNA, one strand shown
Sample: in vitro
Tested at: 2540 nM top
Setting: 60-bp whole probe
Together with: salmon DNA 0.4 mg/ml
Relative to: random background probes
Reading: higher = stronger binding
Shared flanks, not repeated: GCCTAGCAC … GTCTTGATTCGCTTGACGCTGCTG
`CAGTTTTCCTCTGTCATTTTGTGCTAG` — result for “fitted relative affinity”: 3.2 z-score.
Under “fitted relative affinity”, `TAATTTCCATTTTCTAAATGCGTGCTA` is recorded as 6.62 z-score.
Under “fitted relative affinity”, `GACGATATCGGGTTCCGAGACGTGCTA` is recorded as 0.46 z-score.
Under “fitted relative affinity”, `TGAGGTCTCCTTATCCTTTAGTGCTAG` is recorded as 2.38 z-score.
Under “fitted relative affinity”, `TCAGCATTTTTTTTATCACTGTGCTAG` is recorded as 0.193 z-score.
`GACGATATCAGTGTCGAGACGTGCTAG` — result for “fitted relative affinity”: 0.581 z-score.
Under “fitted relative affinity”, `TTAGGTCTCTTTTTCCTTTAGTGCTAG` is recorded as 2.51 z-score.
Under “fitted relative affinity”, `GACGATCTCAGTATCGGGACGTGCTAG` is recorded as 1.44 z-score.

Other studies, line by line
`PhoQ, residues 284 288 289 292 302 303 AAQSYM` has a fold induction of 17.1 (PhoP, residues 12 14 15 18 19 LQHIR (Escherichia coli, UniProt P23836); Sort-seq, measured: YFP reporter; E. coli; PhoQ-PhoP variant library, together with: 10 µM Mg2+; relative to: high Mg2+ state, higher = stronger signaling).

Excerpt of the above (series 1):
The E-score of `CCCCTAGC` is reported as -0.257.
`CCCAGAAC` gave an E-score of -0.138.
